Published values pooled from the literature.
Numbered parts are unrelated; each lists some results of a single study.
Chain of UniProt P42679 (whole entry, looked up): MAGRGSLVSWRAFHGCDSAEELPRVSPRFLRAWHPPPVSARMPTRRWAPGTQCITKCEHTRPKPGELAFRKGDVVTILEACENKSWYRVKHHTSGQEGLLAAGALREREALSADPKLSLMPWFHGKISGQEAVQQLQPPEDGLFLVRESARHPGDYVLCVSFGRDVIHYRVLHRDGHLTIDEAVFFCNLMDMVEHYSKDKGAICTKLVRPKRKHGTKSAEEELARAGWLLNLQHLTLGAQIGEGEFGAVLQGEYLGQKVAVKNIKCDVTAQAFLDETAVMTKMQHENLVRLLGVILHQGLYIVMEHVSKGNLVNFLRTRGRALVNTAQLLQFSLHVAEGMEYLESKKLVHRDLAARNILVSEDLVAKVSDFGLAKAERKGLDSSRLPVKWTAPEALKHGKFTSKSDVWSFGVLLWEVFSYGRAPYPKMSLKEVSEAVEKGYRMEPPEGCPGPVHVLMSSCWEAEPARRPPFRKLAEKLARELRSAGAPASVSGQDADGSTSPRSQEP
Chain of UniProt Q86Z02 (whole entry, looked up): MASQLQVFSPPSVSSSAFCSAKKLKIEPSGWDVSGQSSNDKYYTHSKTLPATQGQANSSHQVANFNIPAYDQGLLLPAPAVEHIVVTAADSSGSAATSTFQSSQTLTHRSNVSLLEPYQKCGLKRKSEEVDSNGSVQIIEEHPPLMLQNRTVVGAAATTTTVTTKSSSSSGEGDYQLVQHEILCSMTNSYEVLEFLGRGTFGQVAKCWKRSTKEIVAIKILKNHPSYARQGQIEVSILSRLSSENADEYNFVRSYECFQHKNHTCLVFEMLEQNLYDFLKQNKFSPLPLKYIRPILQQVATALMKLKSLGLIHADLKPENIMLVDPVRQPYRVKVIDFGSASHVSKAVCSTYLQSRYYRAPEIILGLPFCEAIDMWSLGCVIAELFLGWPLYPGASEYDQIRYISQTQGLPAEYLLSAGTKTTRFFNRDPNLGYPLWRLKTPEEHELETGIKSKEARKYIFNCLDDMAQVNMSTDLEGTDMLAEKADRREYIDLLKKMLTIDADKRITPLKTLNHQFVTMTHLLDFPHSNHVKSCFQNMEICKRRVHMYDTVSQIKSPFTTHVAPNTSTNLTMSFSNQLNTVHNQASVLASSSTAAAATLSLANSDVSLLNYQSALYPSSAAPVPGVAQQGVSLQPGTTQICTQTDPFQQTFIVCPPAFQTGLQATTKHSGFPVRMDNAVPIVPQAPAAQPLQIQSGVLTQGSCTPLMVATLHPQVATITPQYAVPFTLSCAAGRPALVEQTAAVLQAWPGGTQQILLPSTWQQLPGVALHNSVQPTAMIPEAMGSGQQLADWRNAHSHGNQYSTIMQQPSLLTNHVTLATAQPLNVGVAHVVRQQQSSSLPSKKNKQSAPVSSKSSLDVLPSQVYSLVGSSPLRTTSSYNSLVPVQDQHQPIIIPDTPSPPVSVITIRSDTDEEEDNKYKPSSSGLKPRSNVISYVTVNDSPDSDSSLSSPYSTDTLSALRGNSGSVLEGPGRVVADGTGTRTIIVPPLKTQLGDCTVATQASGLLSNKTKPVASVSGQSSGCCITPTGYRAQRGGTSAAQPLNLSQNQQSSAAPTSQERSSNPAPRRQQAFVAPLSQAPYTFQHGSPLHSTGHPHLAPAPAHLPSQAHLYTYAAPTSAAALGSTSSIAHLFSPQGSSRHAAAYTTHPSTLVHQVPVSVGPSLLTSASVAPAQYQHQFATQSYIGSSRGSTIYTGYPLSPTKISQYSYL
Chain of UniProt P09769 (whole entry, looked up): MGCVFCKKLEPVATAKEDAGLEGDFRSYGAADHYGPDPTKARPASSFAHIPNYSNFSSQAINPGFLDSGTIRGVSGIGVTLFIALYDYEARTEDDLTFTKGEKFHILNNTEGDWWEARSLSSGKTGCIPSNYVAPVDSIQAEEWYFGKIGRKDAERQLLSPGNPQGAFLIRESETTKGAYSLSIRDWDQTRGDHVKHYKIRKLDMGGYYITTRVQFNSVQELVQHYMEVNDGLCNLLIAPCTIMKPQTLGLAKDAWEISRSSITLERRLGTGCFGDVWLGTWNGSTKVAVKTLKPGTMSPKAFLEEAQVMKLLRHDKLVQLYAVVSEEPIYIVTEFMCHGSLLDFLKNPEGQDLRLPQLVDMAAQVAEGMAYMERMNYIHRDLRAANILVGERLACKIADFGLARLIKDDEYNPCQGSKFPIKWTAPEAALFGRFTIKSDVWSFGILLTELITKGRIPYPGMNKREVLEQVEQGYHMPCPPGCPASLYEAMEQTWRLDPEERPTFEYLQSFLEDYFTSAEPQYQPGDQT
Chain of UniProt P21709 (whole entry, looked up): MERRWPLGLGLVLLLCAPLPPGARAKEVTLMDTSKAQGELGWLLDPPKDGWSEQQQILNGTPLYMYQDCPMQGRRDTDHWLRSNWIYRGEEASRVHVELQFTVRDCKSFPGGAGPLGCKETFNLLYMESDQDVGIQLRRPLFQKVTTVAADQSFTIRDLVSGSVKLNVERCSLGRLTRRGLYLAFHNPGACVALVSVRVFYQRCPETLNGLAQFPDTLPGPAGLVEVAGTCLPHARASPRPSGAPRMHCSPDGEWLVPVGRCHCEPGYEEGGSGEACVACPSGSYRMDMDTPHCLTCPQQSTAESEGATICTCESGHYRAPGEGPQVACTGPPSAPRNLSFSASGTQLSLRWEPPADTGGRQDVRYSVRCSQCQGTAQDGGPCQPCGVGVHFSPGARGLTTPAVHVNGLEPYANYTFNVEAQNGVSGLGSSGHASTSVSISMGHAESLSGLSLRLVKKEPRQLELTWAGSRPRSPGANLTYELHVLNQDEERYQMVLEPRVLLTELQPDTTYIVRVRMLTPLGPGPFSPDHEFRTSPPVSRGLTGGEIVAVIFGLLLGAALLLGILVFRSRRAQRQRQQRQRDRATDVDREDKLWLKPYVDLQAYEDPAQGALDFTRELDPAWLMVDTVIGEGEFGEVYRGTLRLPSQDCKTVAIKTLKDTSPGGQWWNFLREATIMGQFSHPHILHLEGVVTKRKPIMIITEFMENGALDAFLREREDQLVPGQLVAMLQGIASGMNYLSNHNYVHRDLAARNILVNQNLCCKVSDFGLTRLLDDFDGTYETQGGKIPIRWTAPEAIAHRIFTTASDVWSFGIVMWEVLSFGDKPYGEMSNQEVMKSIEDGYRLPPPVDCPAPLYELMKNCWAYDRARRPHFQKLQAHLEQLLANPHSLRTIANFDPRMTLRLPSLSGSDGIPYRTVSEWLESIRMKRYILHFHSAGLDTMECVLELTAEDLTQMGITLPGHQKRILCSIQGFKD
Chain of UniProt P27448 (whole entry, looked up): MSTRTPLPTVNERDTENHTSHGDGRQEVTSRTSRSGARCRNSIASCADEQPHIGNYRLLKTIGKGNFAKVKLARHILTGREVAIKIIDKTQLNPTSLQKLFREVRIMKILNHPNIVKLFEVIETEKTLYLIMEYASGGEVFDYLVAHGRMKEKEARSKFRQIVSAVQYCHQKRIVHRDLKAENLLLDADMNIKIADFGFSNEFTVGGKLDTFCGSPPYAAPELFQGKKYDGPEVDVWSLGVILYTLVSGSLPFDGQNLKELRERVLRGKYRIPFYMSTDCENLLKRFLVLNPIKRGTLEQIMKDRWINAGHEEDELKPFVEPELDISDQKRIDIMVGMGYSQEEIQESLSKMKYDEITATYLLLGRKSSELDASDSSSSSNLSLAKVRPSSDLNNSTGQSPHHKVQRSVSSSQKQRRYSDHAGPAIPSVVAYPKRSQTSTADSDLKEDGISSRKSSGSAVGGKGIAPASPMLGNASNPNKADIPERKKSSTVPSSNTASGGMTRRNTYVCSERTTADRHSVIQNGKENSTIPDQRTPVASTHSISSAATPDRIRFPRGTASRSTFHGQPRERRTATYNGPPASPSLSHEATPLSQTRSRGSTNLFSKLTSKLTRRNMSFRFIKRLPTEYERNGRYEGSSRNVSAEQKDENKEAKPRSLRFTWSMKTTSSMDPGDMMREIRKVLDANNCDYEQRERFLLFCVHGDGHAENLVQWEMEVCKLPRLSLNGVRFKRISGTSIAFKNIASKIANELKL

Block 1 — effect on: cell-free assay; technique: competition with immobilised ligand; concentration: 1 µM; measurement: remaining binding
Structure (SMILES): CN([C@@H]1CCc2c(CC(=O)O)c3cc(S(C)(=O)=O)ccc3n2C1)S(=O)(=O)c1ccc(F)cc1
EPHB2 (Homo sapiens, UniProt P29323): 87%
Tyrosine-protein kinase ABL1, phosphorylated (ABL1, Homo sapiens, UniProt P00519, Y253F): 82%
STK38L (Homo sapiens, UniProt Q9Y2H1): 88%
EPHA1 (Homo sapiens, UniProt P21709): 88%
CDK14 (Homo sapiens, UniProt O94921): 100%
BMPR1A (Homo sapiens, UniProt P36894): 85%
FLT3 (Homo sapiens, UniProt P36888): 100%
WEE2 (Homo sapiens, UniProt P0C1S8): 95%
CAMK4 (Homo sapiens, UniProt Q16566): 87%
PAK1 (Homo sapiens, UniProt Q13153): 95%

Block 2 — action: agonist; measurement: EC50
Target: Beta-1 adrenergic receptor (ADRB1, Homo sapiens, UniProt P08588)
Chain of UniProt P08588 (whole entry, looked up): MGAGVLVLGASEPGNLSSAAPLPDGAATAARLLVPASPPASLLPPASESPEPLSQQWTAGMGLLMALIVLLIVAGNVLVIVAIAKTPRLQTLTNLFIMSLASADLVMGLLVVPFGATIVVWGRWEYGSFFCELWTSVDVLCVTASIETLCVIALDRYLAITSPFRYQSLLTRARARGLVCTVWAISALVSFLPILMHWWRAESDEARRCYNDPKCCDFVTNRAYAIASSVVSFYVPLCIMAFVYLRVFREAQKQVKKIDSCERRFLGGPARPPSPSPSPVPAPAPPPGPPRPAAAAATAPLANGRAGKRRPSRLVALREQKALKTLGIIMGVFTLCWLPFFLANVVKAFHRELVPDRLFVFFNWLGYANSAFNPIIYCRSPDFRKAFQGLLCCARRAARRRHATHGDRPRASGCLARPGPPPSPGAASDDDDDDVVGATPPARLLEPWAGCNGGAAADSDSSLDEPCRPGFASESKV
Cc1nn2c(=O)cc(CSc3nnc(-c4ccccc4C)o3)nc2s1: ≥ 100 µM
COc1ccc(F)cc1-c1ncc2c(n1)OCCN(c1cccc(C(F)(F)F)c1)C2=O: ≥ 100 µM
Cc1cccnc1NCCNc1nc(C(C)C)nc2c1cnn2C: ≥ 100 µM
O=C1c2ccccc2C(=O)N1c1ccc2ccccc2n1: ≥ 100 µM
COc1cc(O)ccc1OCCNCC(O)COc1cccc2[nH]c3ccccc3c12 (stereo not drawn): ≥ 100 µM
C[C@@H](CN1CCC(Cc2ccccc2)CC1)[C@@H](O)c1ccc(O)cc1: ≥ 100 µM

Block 3 — effect on: enzyme activity; action: inhibitor; concentration: 0.5 µM; relative to: control; measurement: remaining activity
SMILES: O=Nc1c(-c2c(O)[nH]c3cc(Br)ccc23)[nH]c2ccccc12
PRKX (Homo sapiens, UniProt P51817): 92.1%
CDC42BPA (Homo sapiens, UniProt Q5VT25): 94%
SRC (Homo sapiens, UniProt P12931): 7.64%
FGR (Homo sapiens, UniProt P09769): 2.99%
PASK (Homo sapiens, UniProt Q96RG2): 97.9%
Cyclin-dependent kinase 3, with cyclin E (CDK3, Homo sapiens, UniProt Q00526): 25.2%
FER (Homo sapiens, UniProt P16591): 69.8%
MARK3 (Homo sapiens, UniProt P27448): 67%
NLK (Homo sapiens, UniProt Q9UBE8): 101%
STK25 (Homo sapiens, UniProt O00506): 96.3%
NEK11 (Homo sapiens, UniProt Q8NG66): 118%
ALK (Homo sapiens, UniProt Q9UM73): 88.5%
HIPK1 (Homo sapiens, UniProt Q86Z02): 103%
FLT4 (Homo sapiens, UniProt P35916): 50.8%
FYN (Homo sapiens, UniProt P06241): 5.05%
ITK (Homo sapiens, UniProt Q08881): 46.6%
Insulin receptor (INSR, Homo sapiens, UniProt P06213): 92.5%
AKT1 (Homo sapiens, UniProt P31749): 97.7%
MATK (Homo sapiens, UniProt P42679): 99.6%
TAOK3 (Homo sapiens, UniProt Q9H2K8): 56.9%
LIM domain kinase 1 (LIMK1, Homo sapiens, UniProt P53667): 51.7%
PKN1 (Homo sapiens, UniProt Q16512): 82.2%

Block 4 — organism: Sarcocystis neurona; effect on: parasite activity; concentration: 10 µM; time: 96 h; measurement: activity class
CN(C)CCC(c1ccc(Cl)cc1)c1ccccn1 (stereo not drawn): inactive
COc1cc(/C=C/c2ccc(O)cc2)cc(OC)c1: inactive
CC[C@]1(O)C[C@H]2CN(CCc3c([nH]c4ccccc34)[C@@](C(=O)OC)(c3cc4c(cc3OC)N(C=O)[C@H]3[C@@](O)(C(=O)OC)[C@H](OC(C)=O)[C@]5(CC)C=CCN6CC[C@]43[C@@H]65)C2)C1: inactive
c1cnc(N2CCN(Cc3ccc4c(c3)OCO4)CC2)nc1: inactive
NC(=O)c1cccnc1: inactive
CN(CCCN1c2ccccc2CCc2ccccc21)CC(=O)c1ccc(Cl)cc1: inactive
CC1=C(/C=C/C(C)=C/C=C/C(C)=C/C(=O)O)C(C)(C)CCC1: inactive
O=C(O)CCNC(=O)c1ccc(/N=N/c2ccc(O)c(C(=O)O)c2)cc1: inactive
CC[N+](C)(C)c1cccc(O)c1: inactive
NS(=O)(=O)c1cc2c(cc1Cl)N=CNS2(=O)=O: inactive

A few entries again (block 2):
COc1ccc(F)cc1-c1ncc2c(n1)OCCN(c1cccc(C(F)(F)F)c1)C2=O: ≥ 100 µM
Cc1cccnc1NCCNc1nc(C(C)C)nc2c1cnn2C: ≥ 100 µM
O=C1c2ccccc2C(=O)N1c1ccc2ccccc2n1: ≥ 100 µM
Cc1nn2c(=O)cc(CSc3nnc(-c4ccccc4C)o3)nc2s1: ≥ 100 µM
COc1cc(O)ccc1OCCNCC(O)COc1cccc2[nH]c3ccccc3c12 (stereo not drawn): ≥ 100 µM
C[C@@H](CN1CCC(Cc2ccccc2)CC1)[C@@H](O)c1ccc(O)cc1: ≥ 100 µM
